Measurements gathered from unrelated publications.
Protocols differ between the studies behind these lines. Values joined by “and” are separate records of one study, mostly repeats; a detail may differ. ± marks the error that the study gave.

The inhibition of `CC(=O)[O-].O.O.O.O.[Mn+2].[O-]c1ccc(Br)cc1C=NCCN1CCOCC1` is reported as 10.8% (nitric oxide scavenging; 40 µM).
`N#Cc1ccc(-c2cnc(C(=O)CCCCCCc3ccccc3)o2)nc1`: “lipid amide levels” “increased” (item: AEA, OEA, PEA; mouse, brain and liver; i.p., 30 mg/kg, 1 and 3 h).
`Cc1cc(C)cc(NC(=O)CCN2CCCCCC2)c1` — result for “third-quartile larval motion”: 8.3 ± 1.9 pixels/frame (locomotor activity in dark; Danio rerio larvae, 7 dpf, well of 10 larvae; 10 µM, minute 7, dark).
The IL-1β inhibition of `CN1CCC[C@]1(C)/C=C/S(=O)(=O)NC(=O)Nc1c2c(cc3c1CCC3)CCC2` is reported as 95.2% (human, whole blood ex vivo; 100 mg single dose, 24 h, single ascending dose, with: LPS and ATP).
`CC1Cc2ccccc2N1C(=O)CN1CCN(Cc2ccccc2)CC1` (stereo not drawn): “time in open area” “increased” (zero maze; PC7-WT mice; 1 mg/kg; relative to: vehicle).
Under “Ki-67 level decrease”, `CC(C)C[C@H](NC(=O)[C@H](Cc1ccccc1)NC(=O)[C@H](C)NC(=O)[C@@H](CS)NC(=O)CNC(=O)[C@H](N)CO)C(=O)N[C@@H](CO)C(=O)N[C@H](C(=O)N[C@@H](CCCCN)C(=O)N[C@@H](CCCCN)C(=O)N[C@@H](CCC(N)=O)C(=O)N[C@@H](Cc1ccccc1)C(=O)N[C@@H](CCC(=O)O)C(=O)N[C@@H](CCC(=O)O)C(=O)N[C@@H](CC(C)C)C(=O)N[C@H](C(=O)N[C@@H](CC(C)C)C(=O)NCC(=O)N[C@@H](CCC(=O)O)C(=O)N[C@@H](Cc1ccccc1)C(=O)N[C@@H](CC(C)C)C(=O)N[C@H](CCCCN)C(=O)N[C@H](CC(C)C)C(=O)N[C@H](CC(=O)O)C(=O)N[C@@H](CCCNC(=N)N)C(=O)N[C@H](CCCNC(=N)N)C(=O)N[C@@H](CCCNC(=N)N)C(=O)N[C@@H](CCCCN)C(=O)O)[C@@H](C)O)C(C)C` is recorded as 90% (immunostaining, RT-qPCR; mouse A549 xenograft, tumour; intratumoral, dose not given).
The IC50 of `Oc1ccccc1C1Nc2ccccc2C2=[O+][Cu-2]3([Cl])[O]c4ccccc4C=[N+]3N21` (stereo not drawn) is reported as 450 µM (photosynthetic electron transport; Spinacia oleracea chloroplasts).
For `NC(=O)Cc1ccc(O)c(Cc2ccc(O)cc2)c1`, the radical scavenging was 88.94 ± 0.72% (ABTS radical; 300 µg/mL).
`Cc1cccc(NC(=O)CCN2CCN(C/C=C/c3ccccc3)CC2)c1` — result for “third-quartile larval motion”: 1 ± 0.4 pixels/frame (locomotor activity in dark; Danio rerio larvae, 7 dpf, well of 10 larvae; 10 µM, minute 5, dark).
For `Cc1ncsc1-c1ccc(C(C)NC(=O)C2CC(O)CN2C(=O)C(NC(=O)CCCCCCCCCCN2CCCC(Nc3ncc(Cl)c(Nc4ccccc4S(=O)(=O)C(C)C)n3)C2)C(C)(C)C)cc1` (stereo not drawn), “log2 fold change” read -1.87 (22Rv1; RNA-seq, item: NECTIN4 mRNA; concentration not given; relative to: DMSO).
`CCCCCCCCCCCCCCCCCCCCCCCCCCCCOC(=O)/C=C/c1ccc(O)cc1` gave a lipid accumulation of 99.7 ± 10.6% (Oil Red O; 3T3-L1, mouse; 5 µM, day 8; relative to: vehicle).
For `O=C(NC[C@@H]1O[C@H]2CC/C=C/CC[C@H]2O1)c1ccc(COCCOCCOCCF)cc1`, “observed rate constant kobs” read 0.38 ± 0.000879 s⁻¹ (IEDDA cycloaddition, substrate, stopped-flow spectrophotometry; water/methanol 45:55; 0.25 mM, 298 K, with: methyltetrazine-NHS 0.05 mM).
Under “Cohen's d effect size”, `CN(C)C(=O)c1ccnc(N2Cc3cn(Cc4ccc(F)cc4F)nc3C2)n1` is recorded as -0.34 (immunohistochemistry, item: NeuN neuron density; mouse cuprizone diet, corpus callosum; dose not given, unit not given; relative to: cuprizone plus vehicle).
With `OO` the dead cells was 95.4% (pancreatic islet cells, mouse; 125 µM, 24 h).
`O=C(NCC1OC2CCC=CCCC2O1)c1ccc(F)nc1` (stereo not drawn): “observed rate constant kobs” 10.76 ± 0.0249 s⁻¹ (IEDDA cycloaddition, substrate, stopped-flow spectrophotometry; water/methanol 45:55; 1 mM, 298 K, with: methyltetrazine-NHS 0.05 mM).
`COc1cccc(OCC(O)CN2CCN(c3ccccc3OC)CC2)c1` (stereo not drawn): “third-quartile larval motion” 9.8 ± 1.4 pixels/frame (locomotor activity in dark; Danio rerio larvae, 7 dpf, well of 10 larvae; 10 µM, minute 1, dark).
For `CCOC(=O)NCc1ccc(O[C@@H]2O[C@@H](C)[C@H](O)[C@@H](O)[C@H]2O)cc1`, the radical scavenging was 6.52 ± 1.01% (DPPH radical; 300 µg/mL).
Under “log2 fold change”, `COC1CN([C@H]2CC[C@H]([C@@]3(C)Oc4c(Cl)cc(C(=O)NCc5c(SC)cc(C)[nH]c5=O)c(C)c4O3)CC2)C1` is recorded as 1.42 (RNA-seq, item: ERRFI1; human, whole blood; dose not given, 24 h; relative to: pretreatment baseline).
For `CC[C@H](C)[C@@H](C(=O)N[C@@H](CC(C)C)C(=O)N[C@@H](CO)C(=O)N[C@@H](CO)C(=O)N[C@H](C(=O)N[C@@H](CCC(=O)O)C(=O)N[C@H](C(=O)NCC(=O)N[C@@H](CO)C(=O)N[C@@H](CC(N)=O)C(=O)N[C@H](C(=O)N1C[C@H](O)C[C@H]1C(N)=O)[C@@H](C)O)C(C)C)[C@@H](C)O)N(C)C(=O)[C@H](C)NC(=O)CN(C)C(=O)[C@H](Cc1ccccc1)NC(=O)[C@H](CO)NC(=O)[C@H](CO)NC(=O)[C@H](CCCNC(=N)N)NC(=O)[C@H](CCC(N)=O)NC(=O)[C@H](CC(C)C)NC(=O)[C@H](Cc1ccccc1)NC(=O)[C@H](CCCC(=O)O)NC(=O)[C@H](C)NC(=O)[C@H](CC(C)C)NC(=O)[C@H](CCCNC(=N)N)NC(=O)[C@H](CCC(=O)O)NC(=O)[C@@H](NC(=O)[C@H](C)NC(=O)[C@@H]1CCCCNC(=O)C[C@H](NC(=O)[C@H](CCCNC(=N)N)NC(=O)CC[C@H](NC(=O)CCCCCCCCCCCCCCCCCCC(=O)O)C(=O)O)C(=O)NCC(=O)N[C@@H]([C@@H](C)O)C(=O)N[C@@H](C)C(=O)N[C@@H]([C@@H](C)O)C(=O)N1)[C@@H](C)O`, “body weight change” read 3.8% (diet-induced obese rats; subcutaneous, 10 nmol/kg every other day, day 20; relative to: day 0).
`CC(C)C[C@H](NC(=O)CNC(=O)[C@H](CCC(N)=O)NC(=O)[C@H](CC(C)C)NC(=O)[C@H](CC(C)C)NC(=O)[C@H](CCCNC(=N)N)NC(=O)[C@H](CCC(N)=O)NC(=O)[C@H](CC(C)C)NC(=O)[C@H](CCCNC(=N)N)NC(=O)[C@H](C)NC(=O)CNC(=O)[C@H](CCC(=O)O)NC(=O)[C@H](CCCNC(=N)N)NC(=O)[C@H](CC(C)C)NC(=O)[C@H](CCCNC(=N)N)NC(=O)[C@H](CO)NC(=O)[C@H](CC(C)C)NC(=O)[C@H](CCC(=O)O)NC(=O)[C@H](CO)NC(=O)[C@@H](NC(=O)[C@H](Cc1ccccc1)NC(=O)[C@@H](NC(=O)CNC(=O)[C@H](CC(=O)O)NC(=O)C(C)(C)NC(=O)[C@@H](N)Cc1c[nH]cn1)[C@@H](C)O)[C@@H](C)O)C(=O)N[C@@H](CC(C)C)C(=O)N[C@@H](CCC(N)=O)C(=O)NCC(=O)N[C@@H](CC(C)C)C(=O)N[C@H](C(=O)NCC(=O)N[C@@H](CCCCNC(=O)COCCOCCNC(=O)COCCOCCNC(=O)CC[C@H](NC(=O)CCCCCCCCCCCCCCCCC(=O)O)C(=O)O)C(N)=O)C(C)C`: locomotor activity “no effect” (DIO C57BL/6J mice; sc, 300 nmol/kg twice daily, 8 days, dark and light phase).
`CCOC(=O)NN` has a normalised absorbance of 0.682 (hydrazine ligation kinetics, absorbance; concentration not given, 20 s, with: 2-formylphenylboronic acid).
`COc1ccccc1C1CCN(CCC(=O)Nc2ccc(C)c(C)c2)CC1` — result for “third-quartile larval motion”: 2.2 ± 0.6 pixels/frame (locomotor activity in dark; Danio rerio larvae, 7 dpf, well of 10 larvae; 10 µM, minute 3, dark).
`NNC(=O)Cc1ccccc1` gave a normalised absorbance of 0.657 (hydrazine ligation kinetics, absorbance; concentration not given, 30 s, with: 2-formylphenylboronic acid).
`COc1ccc(C(=O)CCc2cc(C(CCc3ccc(O)cc3OC)c3ccc(O)cc3)c(O)cc2OC)cc1` (racemic) has an amount of 280 ± 79 pg/mL blood (item: 12-HEPE; human whole blood; 3 µM, with: A23187).
`COc1ccccc1-c1ccncc1C(=O)Nc1nnc(OCc2ccc(Cl)cc2)s1` gave a colony survival of 92% and 70% and 92.4% and 87.8% and 86.2% and 89.1% (Brca1 Δ11/Δ11 Polq-/- MEFs, mouse; 5 µM).
With `Cc1ccc(S(=O)(=O)NN)cc1` the normalised absorbance was 0.847 (hydrazine ligation kinetics, absorbance; concentration not given, 30 s, with: 2-formylphenylboronic acid).
Under “third-quartile larval motion”, `Cc1cc(NC(=O)CCN2CCCCC2)ccc1Br` is recorded as 1.7 ± 0.6 pixels/frame (locomotor activity in dark; Danio rerio larvae, 7 dpf, well of 10 larvae; 10 µM, minute 7, dark).
With `COc1cc(O)ccc1CCC(c1ccc(O)cc1)c1cc2c(c(C)c1O)OC(c1ccc(O)cc1)CC2` (mixture of isomers) the amount was 146 ± 42 pg/mL blood (item: 12-HEPE; human whole blood; 0.3 µM, with: A23187).
`COc1cc(C2NCCc3cc(O)c(O)cc32)cc(OC)c1OC` (stereo not drawn) has an IC50 of 29.3 µM (DPPH scavenging, absorbance; 30 min, dark).
`CCC(=O)N[C@@H](C)C(=O)OCC(=O)N[C@@H](C)C(=O)O`: “chain scission rate constant” 0.0012 h⁻¹ (water; pH 5, 37 °C).
Under “myocardial capillary density”, `CCC(CC)n1c(Cc2ccco2)nc2cc(C(=O)N[C@@H](CC(=O)O)c3ccccc3)ccc21` is recorded as “increased” (mouse, HFpEF model (HFD plus L-NAME); ip, 20 mg/kg/day, 2 wk).
For `CCOC(=O)C1CCN(CCC(=O)Nc2ccccc2F)CC1`, “third-quartile larval motion” read 0 pixels/frame (locomotor activity in dark; Danio rerio larvae, 7 dpf, well of 10 larvae; 10 µM, minute 3, dark).
Under “body weight loss”, `CC[C@H](C)[C@@H](C(=O)N[C@@H](CC(C)C)C(=O)N[C@@H](CO)C(=O)N[C@@H](CO)C(=O)N[C@H](C(=O)N[C@@H](CCC(=O)O)C(=O)N[C@H](C(=O)NCC(=O)N[C@@H](CO)C(=O)N[C@@H](CC(N)=O)C(=O)N[C@H](C(=O)N1C[C@H](O)C[C@H]1C(N)=O)[C@@H](C)O)C(C)C)[C@@H](C)O)N(C)C(=O)[C@H](C)NC(=O)CN(C)C(=O)[C@H](Cc1ccccc1)NC(=O)[C@H](CO)NC(=O)[C@H](CO)NC(=O)[C@H](CCCNC(=N)N)NC(=O)[C@H](CCC(N)=O)NC(=O)[C@H](CC(C)C)NC(=O)[C@H](Cc1ccccc1)NC(=O)[C@H](Cc1c[nH]cn1)NC(=O)[C@H](C)NC(=O)[C@H](CC(C)C)NC(=O)[C@H](CCCNC(=N)N)NC(=O)[C@H](CCC(=O)O)NC(=O)[C@@H](NC(=O)[C@H](C)NC(=O)[C@@H]1CSSC[C@H](NC(=O)[C@H](CCCNC(=N)N)NC(=O)CC[C@H](NC(=O)CCCCCCCCCCCCCCCCCCC(=O)O)C(=O)O)C(=O)N[C@@H](CCC(N)=O)C(=O)N[C@@H]([C@@H](C)O)C(=O)N[C@@H](C)C(=O)N[C@@H]([C@@H](C)O)C(=O)N1)[C@@H](C)O` is recorded as 7 ± 0.4% (male Sprague-Dawley rats; subcutaneous, 30 nmol/kg single dose, 96 h).

For quick reference, copied from above:
`CCOC(=O)NN` has a normalised absorbance of 0.682 (hydrazine ligation kinetics, absorbance; concentration not given, 20 s, with: 2-formylphenylboronic acid).
The IC50 of `Oc1ccccc1C1Nc2ccccc2C2=[O+][Cu-2]3([Cl])[O]c4ccccc4C=[N+]3N21` (stereo not drawn) is reported as 450 µM (photosynthetic electron transport; Spinacia oleracea chloroplasts).
`Cc1cc(C)cc(NC(=O)CCN2CCCCCC2)c1` — result for “third-quartile larval motion”: 8.3 ± 1.9 pixels/frame (locomotor activity in dark; Danio rerio larvae, 7 dpf, well of 10 larvae; 10 µM, minute 7, dark).
